# Measured values collected from several papers.
# Each numbered part is a random draw from the data of one study; scales do not carry over between parts.
# Chain of UniProt Q8IYT8 (whole entry, looked up): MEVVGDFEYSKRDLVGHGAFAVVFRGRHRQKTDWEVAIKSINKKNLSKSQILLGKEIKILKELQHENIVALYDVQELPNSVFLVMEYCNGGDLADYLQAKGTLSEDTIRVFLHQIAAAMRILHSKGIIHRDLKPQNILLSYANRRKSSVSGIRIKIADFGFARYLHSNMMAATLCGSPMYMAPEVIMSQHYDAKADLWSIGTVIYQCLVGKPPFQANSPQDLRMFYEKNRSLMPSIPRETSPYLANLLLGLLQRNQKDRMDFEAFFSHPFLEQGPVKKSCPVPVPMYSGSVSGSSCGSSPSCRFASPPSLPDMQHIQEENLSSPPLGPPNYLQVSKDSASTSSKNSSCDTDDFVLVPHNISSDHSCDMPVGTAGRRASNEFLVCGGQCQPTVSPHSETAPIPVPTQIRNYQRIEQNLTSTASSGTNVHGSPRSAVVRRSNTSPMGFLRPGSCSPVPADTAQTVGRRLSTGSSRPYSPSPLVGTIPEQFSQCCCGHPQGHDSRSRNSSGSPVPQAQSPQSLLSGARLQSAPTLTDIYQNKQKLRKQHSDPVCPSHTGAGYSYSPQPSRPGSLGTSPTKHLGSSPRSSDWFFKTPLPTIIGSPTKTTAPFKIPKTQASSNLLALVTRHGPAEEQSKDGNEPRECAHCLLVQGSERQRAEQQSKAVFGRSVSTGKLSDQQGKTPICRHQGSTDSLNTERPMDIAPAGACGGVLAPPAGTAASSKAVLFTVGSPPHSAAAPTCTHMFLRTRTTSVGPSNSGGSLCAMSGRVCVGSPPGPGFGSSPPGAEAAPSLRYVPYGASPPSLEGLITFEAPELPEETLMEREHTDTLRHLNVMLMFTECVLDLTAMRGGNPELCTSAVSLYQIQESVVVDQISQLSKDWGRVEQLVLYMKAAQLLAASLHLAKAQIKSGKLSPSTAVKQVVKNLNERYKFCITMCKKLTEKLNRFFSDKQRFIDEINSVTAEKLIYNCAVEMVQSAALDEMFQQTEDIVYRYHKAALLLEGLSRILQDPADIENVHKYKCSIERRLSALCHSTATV
# Chain of UniProt Q96PY6 (whole entry, looked up): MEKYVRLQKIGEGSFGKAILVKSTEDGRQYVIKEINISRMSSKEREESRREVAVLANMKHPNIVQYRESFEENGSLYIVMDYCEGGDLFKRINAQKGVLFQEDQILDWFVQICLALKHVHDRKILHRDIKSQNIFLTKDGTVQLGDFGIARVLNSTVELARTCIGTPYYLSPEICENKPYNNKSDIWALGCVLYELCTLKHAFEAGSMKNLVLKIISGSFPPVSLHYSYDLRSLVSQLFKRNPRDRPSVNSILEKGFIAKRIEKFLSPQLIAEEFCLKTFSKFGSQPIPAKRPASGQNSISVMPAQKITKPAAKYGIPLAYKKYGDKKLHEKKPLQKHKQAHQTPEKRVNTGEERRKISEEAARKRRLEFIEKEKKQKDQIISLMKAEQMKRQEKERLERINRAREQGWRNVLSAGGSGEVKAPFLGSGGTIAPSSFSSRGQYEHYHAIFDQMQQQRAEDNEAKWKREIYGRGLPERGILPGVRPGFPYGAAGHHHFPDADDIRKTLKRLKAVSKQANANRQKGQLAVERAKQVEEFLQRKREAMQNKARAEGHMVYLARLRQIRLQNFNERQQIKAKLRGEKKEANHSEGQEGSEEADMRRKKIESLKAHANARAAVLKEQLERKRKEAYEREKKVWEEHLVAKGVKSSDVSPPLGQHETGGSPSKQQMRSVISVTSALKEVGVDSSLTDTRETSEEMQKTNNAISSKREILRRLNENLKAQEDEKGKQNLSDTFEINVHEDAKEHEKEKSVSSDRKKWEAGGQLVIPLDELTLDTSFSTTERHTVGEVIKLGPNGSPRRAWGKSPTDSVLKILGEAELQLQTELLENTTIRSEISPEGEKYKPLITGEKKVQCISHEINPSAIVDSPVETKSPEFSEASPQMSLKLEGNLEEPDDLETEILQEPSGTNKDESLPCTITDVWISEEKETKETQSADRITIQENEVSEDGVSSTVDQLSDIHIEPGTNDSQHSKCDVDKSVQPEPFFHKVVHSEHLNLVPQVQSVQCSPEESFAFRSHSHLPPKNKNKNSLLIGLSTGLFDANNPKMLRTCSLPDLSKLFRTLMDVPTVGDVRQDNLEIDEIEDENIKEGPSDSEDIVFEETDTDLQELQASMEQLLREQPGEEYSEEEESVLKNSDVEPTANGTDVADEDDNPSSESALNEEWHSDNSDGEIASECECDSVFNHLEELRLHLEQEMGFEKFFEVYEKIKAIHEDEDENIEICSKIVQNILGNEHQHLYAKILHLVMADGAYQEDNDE
# Chain of UniProt Q02763 (whole entry, looked up): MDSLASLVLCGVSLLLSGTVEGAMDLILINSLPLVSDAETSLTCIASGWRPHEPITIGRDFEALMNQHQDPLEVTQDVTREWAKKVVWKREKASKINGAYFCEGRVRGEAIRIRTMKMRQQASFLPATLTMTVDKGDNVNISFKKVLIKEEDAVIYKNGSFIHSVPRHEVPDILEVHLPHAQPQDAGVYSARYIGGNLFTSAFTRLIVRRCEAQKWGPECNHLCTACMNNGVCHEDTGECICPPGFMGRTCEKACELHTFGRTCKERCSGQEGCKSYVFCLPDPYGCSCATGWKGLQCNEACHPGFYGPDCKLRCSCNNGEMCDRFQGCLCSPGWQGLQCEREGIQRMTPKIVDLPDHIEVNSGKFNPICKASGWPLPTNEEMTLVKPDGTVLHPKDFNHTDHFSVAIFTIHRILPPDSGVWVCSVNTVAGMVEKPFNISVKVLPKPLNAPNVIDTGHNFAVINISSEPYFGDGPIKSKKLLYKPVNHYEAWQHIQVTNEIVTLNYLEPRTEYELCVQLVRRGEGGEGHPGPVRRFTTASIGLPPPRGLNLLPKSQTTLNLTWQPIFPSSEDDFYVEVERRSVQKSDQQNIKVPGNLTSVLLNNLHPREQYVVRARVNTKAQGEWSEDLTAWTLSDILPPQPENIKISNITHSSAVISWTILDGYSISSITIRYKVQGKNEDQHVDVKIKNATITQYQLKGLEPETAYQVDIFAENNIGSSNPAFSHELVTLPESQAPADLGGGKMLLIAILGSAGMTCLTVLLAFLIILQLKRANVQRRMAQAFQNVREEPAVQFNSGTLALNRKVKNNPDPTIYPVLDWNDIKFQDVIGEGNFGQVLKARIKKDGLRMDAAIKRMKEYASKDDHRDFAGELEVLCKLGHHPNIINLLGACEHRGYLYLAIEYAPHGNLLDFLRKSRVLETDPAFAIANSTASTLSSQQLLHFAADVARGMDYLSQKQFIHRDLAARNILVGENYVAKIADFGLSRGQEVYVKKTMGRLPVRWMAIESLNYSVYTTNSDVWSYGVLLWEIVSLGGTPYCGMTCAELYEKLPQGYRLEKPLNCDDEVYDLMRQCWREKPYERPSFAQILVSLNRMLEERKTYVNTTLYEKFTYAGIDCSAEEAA
# Chain of UniProt P78368 (whole entry, looked up): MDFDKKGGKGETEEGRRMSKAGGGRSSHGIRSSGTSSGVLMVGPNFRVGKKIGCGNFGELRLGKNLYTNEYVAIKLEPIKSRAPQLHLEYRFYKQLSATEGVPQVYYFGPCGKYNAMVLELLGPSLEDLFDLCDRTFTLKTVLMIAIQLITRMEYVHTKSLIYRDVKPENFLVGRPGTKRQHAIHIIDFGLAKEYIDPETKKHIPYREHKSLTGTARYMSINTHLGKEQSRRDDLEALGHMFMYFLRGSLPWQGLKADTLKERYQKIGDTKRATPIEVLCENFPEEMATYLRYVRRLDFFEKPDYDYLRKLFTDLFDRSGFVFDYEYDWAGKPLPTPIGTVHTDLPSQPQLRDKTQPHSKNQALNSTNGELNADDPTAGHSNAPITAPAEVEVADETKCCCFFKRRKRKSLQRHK
# Chain of UniProt P36896 (whole entry, looked up): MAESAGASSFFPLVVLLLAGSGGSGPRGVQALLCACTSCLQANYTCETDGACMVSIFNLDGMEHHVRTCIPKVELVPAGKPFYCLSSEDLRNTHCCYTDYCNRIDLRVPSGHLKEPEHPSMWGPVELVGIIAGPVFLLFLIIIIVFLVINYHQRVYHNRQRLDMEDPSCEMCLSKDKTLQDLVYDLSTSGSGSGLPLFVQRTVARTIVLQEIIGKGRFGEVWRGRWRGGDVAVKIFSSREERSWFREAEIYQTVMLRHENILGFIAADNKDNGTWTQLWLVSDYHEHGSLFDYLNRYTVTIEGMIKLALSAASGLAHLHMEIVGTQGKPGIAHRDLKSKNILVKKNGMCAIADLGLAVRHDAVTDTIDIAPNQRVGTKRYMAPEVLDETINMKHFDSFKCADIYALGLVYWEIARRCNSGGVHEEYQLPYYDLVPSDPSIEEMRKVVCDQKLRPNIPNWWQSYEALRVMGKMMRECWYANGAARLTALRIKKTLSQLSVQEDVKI

# Study 1
# Structure (SMILES): N#C/C(=C\c1ccc(O)c(O)c1)C(=O)NCc1ccccc1
# Effect on: enzyme activity
# Mode: inhibitor
# Tested at: 0.5 µM
# Baseline: control
target,remaining activity [%]
"EPHA3 (Homo sapiens, UniProt P29320)",97.2
"NEK1 (Homo sapiens, UniProt Q96PY6)",97.3
"GRK7 (Homo sapiens, UniProt Q8WTQ7)",103
"JAK3 (Homo sapiens, UniProt P52333)",97.2
"NEK6 (Homo sapiens, UniProt Q9HC98)",104
"CSNK1G2 (Homo sapiens, UniProt P78368)",106
"WEE1 (Homo sapiens, UniProt P30291)",89.9
"ACVR1B (Homo sapiens, UniProt P36896)",98
"ULK2 (Homo sapiens, UniProt Q8IYT8)",106
"TEK (Homo sapiens, UniProt Q02763)",95.1
"GSK3B (Homo sapiens, UniProt P49841)",106

# Study 2
# Target: Interferon regulatory factor 7, full length, phosphomimetic (IRF7, Homo sapiens, UniProt Q92985, residues 1-503, S101K/S471D/S472D/S475D/S476D/S477D/S483D/S484D/S487D)
# Chain of UniProt Q92985 (whole entry, unmodified, looked up): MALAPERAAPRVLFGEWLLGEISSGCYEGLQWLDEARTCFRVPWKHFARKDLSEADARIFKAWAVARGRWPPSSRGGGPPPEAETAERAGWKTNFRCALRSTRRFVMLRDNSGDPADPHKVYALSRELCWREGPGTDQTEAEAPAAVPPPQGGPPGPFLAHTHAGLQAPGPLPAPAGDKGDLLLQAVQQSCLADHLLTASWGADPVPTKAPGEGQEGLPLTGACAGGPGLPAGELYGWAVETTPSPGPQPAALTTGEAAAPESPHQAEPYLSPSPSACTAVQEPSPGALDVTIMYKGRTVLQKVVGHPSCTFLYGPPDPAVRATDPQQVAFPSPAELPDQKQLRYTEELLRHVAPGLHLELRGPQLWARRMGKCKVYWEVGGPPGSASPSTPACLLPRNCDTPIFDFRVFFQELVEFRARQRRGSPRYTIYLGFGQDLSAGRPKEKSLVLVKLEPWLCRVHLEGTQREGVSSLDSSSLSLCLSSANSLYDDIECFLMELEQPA
# Method: protein-binding microarray
# Molecule type: double-stranded DNA, one strand shown
# Matrix: in vitro
# Tested at: 250 nM
# Notes: 60-bp whole probe
# Added: salmon DNA 0.4 mg/ml
# Baseline: random background probes
# Reading: higher = stronger binding
# All sequences stand within: GCCTAGCAC … GTCTTGATTCGCTTGACGCTGCTG
Sequence,log fluorescence [z-score]
TTAGGTTTCGGTCGCGGTTAGTGCTAG,3.98
GACGGACTGGACACTGGAGACGTGCTA,-0.942
TTAGGAGTGGTACATGAAGCGTGCTAG,-0.813
GACGGTTTCCTACTGCTAACGTGCTAG,1.53
GACGGTTTCGACTTTCAGGACGTGCTA,10.9
ACCCATCTCAAGTAGCCTAGCGTGCTA,-0.0974
TCACTTTTTTGTTCCACACTGTGCTAG,1.24
AACGGTATCGGGTATCGGGACGTGCTA,0.597

# Study 3
# Compound: O=C(N[C@H]1CCCCC/C=C\C2C[C@@]2(C(=O)O)NC(=O)[C@@H]2C[C@@H](Oc3ccncc3)CN2C1=O)OC1CCCC1 (stereo partly drawn)
# Method: competition with immobilised ligand
# Tested at: 1 µM
target,effect on,remaining binding [%]
"DCLK2 (Homo sapiens, UniProt Q8N568)",binding,93
"LATS2 (Homo sapiens, UniProt Q9NRM7)",binding,100
"STK25 (Homo sapiens, UniProt O00506)",binding,97
"FLT3 (Homo sapiens, UniProt P36888, D835H)",binding,56
"MAPK9 (Homo sapiens, UniProt P45984)",binding,94
"FLT3 (Homo sapiens, UniProt P36888, D835Y)",binding,98
"EGFR (Homo sapiens, UniProt P00533, A750P/del747-749)",cell-free assay,100
"MAPK6 (Homo sapiens, UniProt Q16659)",binding,92
"PIK3CA (Homo sapiens, UniProt P42336, Q546K)",binding,98
"CSNK1G1 (Homo sapiens, UniProt Q9HCP0)",binding,88
"Ribosomal protein S6 kinase alpha-3, C-terminal kinase domain (RPS6KA3, Homo sapiens, UniProt P51812)",binding,89
"EIF2AK2 (Homo sapiens, UniProt P19525)",binding,100

# Study 4
# Target: Phosphate system positive regulatory protein PHO4, full length, GST-tagged (PHO4, Saccharomyces cerevisiae, UniProt P07270, residues 1-312)
# Method: competition protein-binding microarray
# Molecule type: double-stranded DNA, one strand shown
# Matrix: in vitro
# Tested at: 2 µM
# Notes: whole 60-bp probe, lowest competitor level
# Added: Cbf1 competitor, 0.05 µM
# Reading: higher = stronger binding
# All sequences stand within: … GTCTTGATTCGCTTGACGCTGCTG
# Residues (chain): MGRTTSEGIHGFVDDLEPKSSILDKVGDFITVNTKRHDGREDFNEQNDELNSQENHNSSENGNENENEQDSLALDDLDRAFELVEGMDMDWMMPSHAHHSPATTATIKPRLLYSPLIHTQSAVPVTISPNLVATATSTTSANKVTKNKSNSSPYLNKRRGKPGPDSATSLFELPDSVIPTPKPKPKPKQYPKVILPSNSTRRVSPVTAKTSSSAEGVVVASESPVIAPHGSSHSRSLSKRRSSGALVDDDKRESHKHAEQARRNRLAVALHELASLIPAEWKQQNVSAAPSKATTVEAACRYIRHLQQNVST
Sequence,fluorescence intensity [a.u.]
AAAGCGGTAATTTGAAGCGTGGGTGCAGATATCTAT,9550
TTCCAAATCCTTCTCCTCGTGGACCCCTTGGGCGAT,10300
TGTGGGAATTGTACCCACGATCCCCGCATTACGAGT,9050
GTTGATTTGAACAGAAGCGTGGTGAACGGCTTTGAT,8370
TTCACTAGGCAAATCCACGTGCTTTAGCATTTCCAT,18500
ATGGTTAGAAAAAGAAACGTGCAATCGCCCGTCTGG,13100
GCCACATTGTATCAACGCGTGATGGACAAATGTTTG,9140
CGGGGTTAAGTTTTTCACGTGACATGCTTGCAGCAG,9890

# Repeated from above (study 3):
target,effect on,remaining binding [%]
"MAPK6 (Homo sapiens, UniProt Q16659)",binding,92
"DCLK2 (Homo sapiens, UniProt Q8N568)",binding,93
"FLT3 (Homo sapiens, UniProt P36888, D835Y)",binding,98
"MAPK9 (Homo sapiens, UniProt P45984)",binding,94
"CSNK1G1 (Homo sapiens, UniProt Q9HCP0)",binding,88
